Published values of several laboratories.
Numbered parts are unrelated; each lists some results of a single study.
Sequence of UniProt Q13283 (whole entry, looked up): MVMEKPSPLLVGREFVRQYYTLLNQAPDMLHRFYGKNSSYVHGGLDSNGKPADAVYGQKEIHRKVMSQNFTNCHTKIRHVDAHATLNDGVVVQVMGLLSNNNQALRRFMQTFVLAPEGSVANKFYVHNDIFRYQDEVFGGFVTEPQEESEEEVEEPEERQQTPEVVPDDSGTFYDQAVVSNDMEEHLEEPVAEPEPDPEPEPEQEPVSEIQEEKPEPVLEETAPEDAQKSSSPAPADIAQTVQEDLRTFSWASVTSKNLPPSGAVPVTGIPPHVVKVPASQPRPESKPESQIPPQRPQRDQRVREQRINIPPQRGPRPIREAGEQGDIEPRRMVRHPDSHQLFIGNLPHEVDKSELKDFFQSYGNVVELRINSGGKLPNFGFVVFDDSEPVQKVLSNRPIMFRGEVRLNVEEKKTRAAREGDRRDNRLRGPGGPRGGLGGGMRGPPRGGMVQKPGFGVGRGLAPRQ

Set 1
Target: Sal-like protein 4, full length isoform B (SALL4, Homo sapiens, UniProt Q9UJQ4-2, residues 1-616)
Method: universal PBM
Form: double-stranded DNA, one strand shown
Medium: in vitro
Concentration: not given
Setting: 8-mer, flanks averaged, mean of replicates
Direction: higher = stronger binding
Sequence	E-score
AGTCTCGG	-0.268
GTGCCGAA	-0.206
CACAATTA	0.288
AAACGGGG	-0.0603

Set 2
Target: Histone acetyltransferase KAT6A, winged helix 2, GST fusion (KAT6A, Homo sapiens, UniProt Q92794, residues 85-181)
Method: protein binding microarray
Form: double-stranded DNA, one strand shown
Medium: in vitro
Concentration: not given
Setting: 8-mer, flanks averaged, mean of 2 arrays, mostly near background
Relative to: not given
Direction: higher = stronger binding
Construct (chain): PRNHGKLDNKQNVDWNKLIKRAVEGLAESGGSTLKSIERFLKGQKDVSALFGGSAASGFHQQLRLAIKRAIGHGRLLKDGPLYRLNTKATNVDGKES
Sequence	E-score
ATCGATTG	-0.0613
CCTCTAGA	-0.118
CGTCTCGA	-0.00789

Single results of other studies
Molecule	target	assay	system	setting	how to read	measurement	result
PhoQ, residues 284 288 289 292 302 303 HSSMNL	PhoP, residues 12 14 15 18 19 SPWRL (Escherichia coli, UniProt P23836)	Sort-seq, measured: YFP reporter	E. coli	PhoQ-PhoP variant library, together with: 10 µM Mg2+	relative to: high Mg2+ state, higher = stronger signaling	fold induction	1.14
GGGAGUUCUACAGUCCGACGAUCUCCUGUGCUACACAUCGUAUGUACCGAAUCGGGGCCCCCGGGGCCCCCGGGCCCCCGGGGAAAGUAUUAUGUUACGCCGUUCGGAUCUGCUGGAAUUCUCGGGUGUCAAGG	Ras GTPase-activating protein-binding protein 1, C-terminal RGG region (G3BP1, Homo sapiens, UniProt Q13283)	RNA Bind-n-Seq	RNA, in vitro	1 µM, whole 134-nt RNA, ends assumed, together with: 150 mM KCl	relative to: input library, higher = stronger binding	log2 enrichment	-1.83

Some of these lines once more (set 2):
Sequence	E-score
CGTCTCGA	-0.00789
